{"data": "Results gathered from unrelated publications", "note": "A part holds a random share of what one study measured.", "sequence of UniProt Q13177 (whole entry, looked up)": "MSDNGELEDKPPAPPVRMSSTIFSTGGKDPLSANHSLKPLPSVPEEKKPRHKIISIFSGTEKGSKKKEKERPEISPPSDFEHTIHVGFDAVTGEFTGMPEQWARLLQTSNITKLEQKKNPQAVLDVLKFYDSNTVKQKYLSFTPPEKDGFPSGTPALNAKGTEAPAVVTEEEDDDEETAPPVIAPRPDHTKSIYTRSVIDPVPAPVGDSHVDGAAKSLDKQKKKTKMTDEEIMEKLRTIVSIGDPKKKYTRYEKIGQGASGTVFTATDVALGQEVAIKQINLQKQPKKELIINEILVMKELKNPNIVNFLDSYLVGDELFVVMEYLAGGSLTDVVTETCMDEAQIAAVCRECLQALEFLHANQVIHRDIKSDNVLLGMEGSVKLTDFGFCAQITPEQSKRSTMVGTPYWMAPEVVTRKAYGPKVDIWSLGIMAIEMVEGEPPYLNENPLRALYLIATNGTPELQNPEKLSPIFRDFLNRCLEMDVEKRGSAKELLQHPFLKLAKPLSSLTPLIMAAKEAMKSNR", "sequence of UniProt Q9H2G2 (whole entry, looked up)": "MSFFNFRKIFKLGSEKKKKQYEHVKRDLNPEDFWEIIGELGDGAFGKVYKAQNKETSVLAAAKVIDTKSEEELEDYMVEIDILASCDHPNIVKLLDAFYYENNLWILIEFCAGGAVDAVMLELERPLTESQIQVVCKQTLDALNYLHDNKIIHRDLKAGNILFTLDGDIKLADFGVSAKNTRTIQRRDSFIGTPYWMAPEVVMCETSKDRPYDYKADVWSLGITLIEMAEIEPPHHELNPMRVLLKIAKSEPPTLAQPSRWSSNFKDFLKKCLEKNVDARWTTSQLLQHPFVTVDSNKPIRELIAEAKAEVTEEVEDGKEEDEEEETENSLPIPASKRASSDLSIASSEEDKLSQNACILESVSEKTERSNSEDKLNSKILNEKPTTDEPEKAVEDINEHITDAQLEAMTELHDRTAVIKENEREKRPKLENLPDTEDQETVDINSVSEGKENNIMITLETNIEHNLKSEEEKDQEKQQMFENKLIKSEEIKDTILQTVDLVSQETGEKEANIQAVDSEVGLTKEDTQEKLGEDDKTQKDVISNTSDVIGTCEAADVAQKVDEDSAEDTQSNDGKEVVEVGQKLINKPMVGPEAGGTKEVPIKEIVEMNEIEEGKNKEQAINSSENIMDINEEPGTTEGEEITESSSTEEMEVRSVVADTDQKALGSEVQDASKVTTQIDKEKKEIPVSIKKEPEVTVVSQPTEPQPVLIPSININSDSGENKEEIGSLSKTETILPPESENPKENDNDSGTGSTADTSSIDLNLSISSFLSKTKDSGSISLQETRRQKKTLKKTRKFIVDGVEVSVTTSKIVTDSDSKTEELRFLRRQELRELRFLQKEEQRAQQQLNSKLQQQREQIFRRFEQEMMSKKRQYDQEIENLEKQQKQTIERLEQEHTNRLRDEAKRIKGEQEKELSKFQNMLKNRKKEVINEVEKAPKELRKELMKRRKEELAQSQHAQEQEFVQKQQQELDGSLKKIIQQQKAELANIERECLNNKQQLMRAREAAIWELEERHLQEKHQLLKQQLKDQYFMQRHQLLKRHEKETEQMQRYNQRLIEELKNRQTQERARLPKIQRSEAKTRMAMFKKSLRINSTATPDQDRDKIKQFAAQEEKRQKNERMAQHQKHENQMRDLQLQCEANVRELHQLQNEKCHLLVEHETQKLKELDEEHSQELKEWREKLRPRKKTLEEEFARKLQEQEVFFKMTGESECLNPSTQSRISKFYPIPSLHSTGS", "sequence of UniProt Q00537 (whole entry, looked up)": "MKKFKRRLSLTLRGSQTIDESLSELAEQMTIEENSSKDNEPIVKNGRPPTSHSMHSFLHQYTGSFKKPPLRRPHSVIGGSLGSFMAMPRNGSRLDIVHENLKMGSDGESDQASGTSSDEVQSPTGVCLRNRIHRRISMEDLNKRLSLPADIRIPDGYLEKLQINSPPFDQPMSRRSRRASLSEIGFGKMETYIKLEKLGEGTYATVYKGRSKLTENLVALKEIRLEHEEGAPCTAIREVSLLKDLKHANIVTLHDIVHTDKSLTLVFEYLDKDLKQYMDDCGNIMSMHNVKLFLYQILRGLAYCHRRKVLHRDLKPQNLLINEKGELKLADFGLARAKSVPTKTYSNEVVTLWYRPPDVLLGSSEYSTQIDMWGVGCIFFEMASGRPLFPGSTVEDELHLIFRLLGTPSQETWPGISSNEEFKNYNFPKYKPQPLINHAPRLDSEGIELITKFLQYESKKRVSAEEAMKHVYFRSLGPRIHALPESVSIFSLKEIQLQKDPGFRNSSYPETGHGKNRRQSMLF", "sequence of UniProt Q96NX5 (whole entry, looked up)": "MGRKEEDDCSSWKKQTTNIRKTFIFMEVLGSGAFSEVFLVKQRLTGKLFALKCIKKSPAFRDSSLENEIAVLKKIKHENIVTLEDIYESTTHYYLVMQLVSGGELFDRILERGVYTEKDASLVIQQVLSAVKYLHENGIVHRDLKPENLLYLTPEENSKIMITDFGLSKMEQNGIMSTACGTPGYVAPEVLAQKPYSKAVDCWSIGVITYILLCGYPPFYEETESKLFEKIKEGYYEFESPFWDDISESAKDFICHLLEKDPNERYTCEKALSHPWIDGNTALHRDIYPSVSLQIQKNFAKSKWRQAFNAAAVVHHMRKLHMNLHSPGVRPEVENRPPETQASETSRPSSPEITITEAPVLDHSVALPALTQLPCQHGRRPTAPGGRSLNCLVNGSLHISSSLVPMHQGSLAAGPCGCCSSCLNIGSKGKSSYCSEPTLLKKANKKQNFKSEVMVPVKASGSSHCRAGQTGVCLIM", "sequence of UniProt Q15349 (whole entry, looked up)": "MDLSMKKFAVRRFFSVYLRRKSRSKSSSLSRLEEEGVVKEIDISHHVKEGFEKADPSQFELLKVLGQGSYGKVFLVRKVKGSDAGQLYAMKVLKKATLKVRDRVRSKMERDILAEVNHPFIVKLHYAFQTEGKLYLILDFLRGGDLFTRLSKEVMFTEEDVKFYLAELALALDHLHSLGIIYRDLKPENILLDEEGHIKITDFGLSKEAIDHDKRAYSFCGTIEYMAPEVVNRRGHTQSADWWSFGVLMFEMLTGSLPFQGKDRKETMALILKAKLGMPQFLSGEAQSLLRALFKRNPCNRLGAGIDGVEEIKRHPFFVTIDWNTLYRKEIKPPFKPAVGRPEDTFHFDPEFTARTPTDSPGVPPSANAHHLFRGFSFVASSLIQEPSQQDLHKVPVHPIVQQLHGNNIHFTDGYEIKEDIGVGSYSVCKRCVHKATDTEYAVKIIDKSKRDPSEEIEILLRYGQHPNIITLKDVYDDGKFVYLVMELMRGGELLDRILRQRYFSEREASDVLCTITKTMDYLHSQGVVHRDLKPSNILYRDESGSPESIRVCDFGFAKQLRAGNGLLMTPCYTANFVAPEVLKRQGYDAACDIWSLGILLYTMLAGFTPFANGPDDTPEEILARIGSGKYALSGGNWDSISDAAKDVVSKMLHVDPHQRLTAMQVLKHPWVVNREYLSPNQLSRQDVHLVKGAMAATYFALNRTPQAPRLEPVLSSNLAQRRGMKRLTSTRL"}
{"data": "Set 1", "SMILES": "COC[C@H]1OC(=O)c2coc3c2[C@@]1(C)C1=C(C3=O)[C@@H]2CCC(=O)[C@@]2(C)C[C@H]1OC(C)=O", "observed": "enzyme activity", "mode": "inhibitor", "concentration": "0.5 µM", "baseline": "control"}
{"target": "NEK9 (Homo sapiens, UniProt Q8TD19)", "remaining activity": "92.3%"}
{"target": "EGFR (Homo sapiens, UniProt P00533)", "remaining activity": "97%"}
{"target": "SLK (Homo sapiens, UniProt Q9H2G2)", "remaining activity": "94.1%"}
{"target": "HIPK3 (Homo sapiens, UniProt Q9H422)", "remaining activity": "103%"}
{"target": "CAMK1G (Homo sapiens, UniProt Q96NX5)", "remaining activity": "96.7%"}
{"data": "Set 2", "SMILES": "N#CC1(c2ccccn2)CCN(Cc2cc(C(=O)O)c(=O)n3ccccc23)CC1", "observed": "cell-free assay", "method": "competition with immobilised ligand", "concentration": "1 µM"}
{"target": "PAK2 (Homo sapiens, UniProt Q13177)", "remaining binding [%]": 77}
{"target": "TRPM6 (Homo sapiens, UniProt Q9BX84)", "remaining binding [%]": 100}
{"target": "SIK2 (Homo sapiens, UniProt Q9H0K1)", "remaining binding [%]": 100}
{"target": "CDK17 (Homo sapiens, UniProt Q00537)", "remaining binding [%]": 96}
{"target": "Ribosomal protein S6 kinase alpha-2, N-terminal kinase domain (RPS6KA2, Homo sapiens, UniProt Q15349)", "remaining binding [%]": 100}
{"data": "Mixed results"}
{"Compound": "Clc1ncccc1C1Cc2ccccc2C2=NCCN21 (stereo not drawn)", "test system": "human, microsomes or S9", "setting": "2 µM, 0.5 h", "endpoint": "remaining compound", "value": "> 99%"}
{"Compound": "O=C(O[C@@H]1Cc2c(O)cc(O)cc2O[C@@H]1c1cc(O)c(O)c(O)c1)c1cc(O)c(O)c(O)c1", "tested on": "chymotrypsin", "assay": "enzyme activity, inhibitor", "setting": "10 µM, with: DTT", "endpoint": "inhibition", "value": "-0.5%"}
{"note": "For quick reference, copied from above (mixed results):"}
{"Compound": "Clc1ncccc1C1Cc2ccccc2C2=NCCN21 (stereo not drawn)", "test system": "human, microsomes or S9", "setting": "2 µM, 0.5 h", "endpoint": "remaining compound", "value": "> 99%"}
{"Compound": "O=C(O[C@@H]1Cc2c(O)cc(O)cc2O[C@@H]1c1cc(O)c(O)c(O)c1)c1cc(O)c(O)c(O)c1", "tested on": "chymotrypsin", "assay": "enzyme activity, inhibitor", "setting": "10 µM, with: DTT", "endpoint": "inhibition", "value": "-0.5%"}
